# Assay results pooled from the literature.
# A part holds a random share of what one study measured.

# Sample 1
# Target: Centromere-binding protein 1, full length, His-tagged (CBF1, Saccharomyces cerevisiae, UniProt P17106, residues 1-351)
# Sequence of UniProt P17106 (whole entry, looked up): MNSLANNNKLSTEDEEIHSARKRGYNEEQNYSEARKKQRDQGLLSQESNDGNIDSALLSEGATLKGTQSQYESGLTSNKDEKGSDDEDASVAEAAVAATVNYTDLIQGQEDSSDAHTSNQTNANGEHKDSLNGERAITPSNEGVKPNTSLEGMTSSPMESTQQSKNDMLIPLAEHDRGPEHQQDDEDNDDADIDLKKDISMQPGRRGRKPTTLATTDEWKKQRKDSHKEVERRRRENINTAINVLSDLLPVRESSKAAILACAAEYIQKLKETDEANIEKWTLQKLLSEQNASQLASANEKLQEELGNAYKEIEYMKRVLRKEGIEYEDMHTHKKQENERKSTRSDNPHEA
# Method: competition protein-binding microarray
# Form: double-stranded DNA, one strand shown
# Medium: in vitro
# Concentration: 2 µM
# Notes: whole 60-bp probe, lowest competitor level
# Together with: Pho4 competitor, 0.05 µM
# Direction: higher = stronger binding
Strand,fluorescence intensity
ATCTTGTGAAACTCCGTCGTGCTTTGGATAGAGCCTGTCTTGATTCGCTTGACGCTGCTG,84 a.u.
TTGAGGATCATCCAACACGTGCGATAACGTATCGACGTCTTGATTCGCTTGACGCTGCTG,1150 a.u.
AAAGCGGTAATTTGTAAAGTGGGTGCAGATATCTATGTCTTGATTCGCTTGACGCTGCTG,69.5 a.u.

# Sample 2
# Target: Histone acetyltransferase KAT6A, both winged helices, GST fusion (KAT6A, Homo sapiens, UniProt Q92794, residues 1-181)
# Method: protein binding microarray
# Form: double-stranded DNA, one strand shown
# Medium: in vitro
# Concentration: not given
# Notes: 8-mer, flanks averaged, mean of 2 arrays, mostly near background
# Baseline: not given
# Direction: higher = stronger binding
# Target sequence (chain): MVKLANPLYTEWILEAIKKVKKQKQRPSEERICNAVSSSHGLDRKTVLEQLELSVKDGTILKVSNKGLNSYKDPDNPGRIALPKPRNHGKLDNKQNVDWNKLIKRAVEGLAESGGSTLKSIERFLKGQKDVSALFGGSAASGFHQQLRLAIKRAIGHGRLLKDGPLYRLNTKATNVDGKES
Strand,E-score
ATTACGAG,-0.0966
CATCCACC,-0.112
ACTTGGGC,-0.127
CAACAAGA,-0.163
CTGCGTCC,-0.00971

# Sample 3
# Target: RNA binding protein fox-1 homolog 2, RRM domain, GST-SBP tag (RBFOX2, Homo sapiens, UniProt O43251-10, residues 100-194)
# Method: RNA Bind-n-Seq
# Form: RNA
# Medium: in vitro
# Concentration: 365 nM
# Notes: natural RNA segment, single round, ends assumed
# Baseline: no-protein control
# Direction: higher = stronger binding
# Target sequence (chain): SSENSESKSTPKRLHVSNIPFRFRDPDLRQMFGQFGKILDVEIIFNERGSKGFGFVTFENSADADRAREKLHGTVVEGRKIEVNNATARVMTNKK
Strand,RBNS enrichment (R)
GGGAGUUCUACAGUCCGACGAUCCCAGCCUCCCCAGGUAGCCACCCUCGAGACACGACCUCAGAGUCUCUGUGUCUCCUAGAAGCCUGACAGAGACCCCCAGGGCAGUGGGUGGGUGGCGGGCUAGAGACCCUUGGAAUUCUCGGGUGCCAA,0.315
GGGAGUUCUACAGUCCGACGAUCUAAAGUAUAUGUUUCUCAUGAGACUGAGGGUUUUAUUUUUAAAAUCCCCUUACAUUUCUAGCACACCUUGGCCAUCACAGUAGACAAAGAAUACAGAGAAGGCAGUGGGUUGGAAUUCUCGGGUGCCAA,0.634
GGGAGUUCUACAGUCCGACGAUCGCCUAGCUGGCCUUAUUUGUGAAGCAUAAUUGCUUUUAGCAUAUGGAAGUAUUUUUUCACAUUUUCUUUGUAUAAAAUUUGUAUUAAACUUAAAUAUCUUUUUGAUGGUGUGGAAUUCUCGGGUGCCAA,0.637

# Other studies, line by line
Molecule,target,assay,test system,setting,scale,measurement,result
"PhoQ, residues 284 288 289 292 302 303 SCKMEA","PhoP, residues 12 14 15 18 19 QYCSL (Escherichia coli, UniProt P23836)","Sort-seq, refers to: YFP reporter",E. coli,"PhoQ-PhoP variant library, together with: 10 µM Mg2+","baseline: high Mg2+ state, higher = stronger signaling",fold induction,13.9

# For quick reference, copied from above (sample 2):
Strand,E-score
CATCCACC,-0.112
ACTTGGGC,-0.127
